Literature values, collected from citations in different studies.
Lines come from different studies, so protocols differ. pEC50, pIC50, pKi: −log10 of the molar value. Converted amounts (≈) assume the structure as drawn.
Sequence of UniProt P21917 (whole entry, looked up): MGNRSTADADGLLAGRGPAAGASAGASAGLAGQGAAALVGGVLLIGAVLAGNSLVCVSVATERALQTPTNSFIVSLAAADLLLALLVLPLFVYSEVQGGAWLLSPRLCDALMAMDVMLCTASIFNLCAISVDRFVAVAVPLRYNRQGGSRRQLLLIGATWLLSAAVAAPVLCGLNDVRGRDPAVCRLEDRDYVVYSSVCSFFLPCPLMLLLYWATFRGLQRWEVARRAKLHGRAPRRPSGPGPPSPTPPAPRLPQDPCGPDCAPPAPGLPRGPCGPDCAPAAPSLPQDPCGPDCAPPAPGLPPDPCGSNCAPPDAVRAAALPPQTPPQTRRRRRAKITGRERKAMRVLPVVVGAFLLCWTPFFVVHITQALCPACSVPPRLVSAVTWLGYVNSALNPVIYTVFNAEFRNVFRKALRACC
Sequence of UniProt P18825 (whole entry, looked up): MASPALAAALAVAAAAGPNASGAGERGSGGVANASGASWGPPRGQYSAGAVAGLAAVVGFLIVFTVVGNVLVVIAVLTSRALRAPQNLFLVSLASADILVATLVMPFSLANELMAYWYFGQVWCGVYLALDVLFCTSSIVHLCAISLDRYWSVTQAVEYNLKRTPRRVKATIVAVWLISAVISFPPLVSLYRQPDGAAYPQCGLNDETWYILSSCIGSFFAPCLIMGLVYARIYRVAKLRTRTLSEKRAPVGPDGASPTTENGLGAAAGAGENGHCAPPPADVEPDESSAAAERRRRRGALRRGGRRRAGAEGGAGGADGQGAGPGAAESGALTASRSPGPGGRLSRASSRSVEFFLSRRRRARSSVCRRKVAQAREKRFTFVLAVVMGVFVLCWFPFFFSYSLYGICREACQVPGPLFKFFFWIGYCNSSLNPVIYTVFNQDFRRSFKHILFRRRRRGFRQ

Under “HCV RNA reduction”, `CO[C@@H]1[C@H](OP(=O)(OC[C@H]2O[C@@H](n3cnc4c(N)ncnc43)C[C@@H]2O)SCOC(=O)OC(C)C)[C@@H](CO)O[C@H]1n1ccc(=O)[nH]c1=O` (stereo partly drawn) is recorded as at most 1.9 log10 (hepatitis C virus; chronic HCV patients, phase I; dose not given).
With `c1ccc(-c2ccc(-c3nc4ccccc4[nH]3)cc2)cc1` the pIC50 was under 4.49 (Trypanosoma cruzi; Tulahuen C4 LacZ).
`CCC[C@H](NC(=O)[C@@H]1[C@H]2CCC[C@H]2CN1C(=O)[C@@H](NC(=O)[C@@H](NC(=O)c1cnccn1)C1CCCCC1)C(C)(C)C)C(=O)C(=O)NC1CC1` gave a cure rate of 60 to 80% (hepatitis C virus; HCV-infected patients; dose not given, added: ribavirin and pegylated interferon alpha).
The MIC90 of `Cc1ccc(C(C)C)c(O)c1` is reported as 200 to 2290 µg/mL (≈ 1330 to 15300 µM) (bacterial isolates; canine otitis externa, multidrug-resistant).
For `Cc1cc(Nc2ccc(C)c(Cl)c2)n2nc(C(F)(F)F)nc2n1`, the pIC50 was 4.64 (Trypanosoma cruzi; Tulahuen C4 LacZ).
`NC(=O)c1ncn([C@@H]2O[C@H](CO)[C@@H](O)[C@H]2O)n1` gave a pEC50 of 5.33 (respiratory syncytial virus A; viral replication, MTT; Long).
With `Cc1ccc(C(C)C)cc1O` the survival increase was 100% (Candida albicans; Galleria mellonella; dose not given, post-infection treatment).
`C=CCN(CC=C)CCc1c[nH]c2ccc(OC)cc12` gave a pKi of under 5.00 (D(4) dopamine receptor (DRD4, Homo sapiens, UniProt P21917)).
The survival of `NC(=O)c1nc(F)cnc1O` is reported as 100% (Pichinde virus; hamster; 100 mg/kg/day, from day 4 or 5 post infection).
`COc1ccc2sc(N(Cc3cccnc3)C(=O)c3ccc(C#N)cc3)nc2c1` gave a pIC50 of 5.26 (Trypanosoma cruzi; Tulahuen C4 LacZ).
With `CO/N=C(\C(=O)N[C@@H]1C(=O)N2C(C(=O)O)=C(CSc3nc(=O)c(=O)[nH]n3C)CS[C@H]12)c1csc(N)n1` the MIC was 64 µg/mL (≈ 115 µM) (Acinetobacter baumannii; OXA-225 producing).
For `C=CCN(CC=C)CCc1c[nH]c2ccccc12`, the pKi was 6.05 (Alpha-2C adrenergic receptor (ADRA2C, Homo sapiens, UniProt P18825); binding; cloned human receptor; added: [3H]rauwolscine).
For `Cc1nc2ccccc2c(O)c1CC=C(Cl)Cl`, the pIC50 was 5.72 (Trypanosoma cruzi; Tulahuen C4 LacZ).
`interferon alpha`: “replicon RNA level” about 100 copies per cell (Norwalk virus; viral replication; HG23 Norwalk virus replicon cells; 20 units).
`Cn1c(Cn2ccc(C(F)(F)F)c(Oc3cc(Cl)cc(C#N)c3)c2=O)n[nH]c1=O` gave a selectivity index of over 2300 (HIV-1; RES056 K103N/Y181C; reference: CC50 over EC50).
